Published values collected from several papers.
Protocols differ between the studies behind these lines. Several values in a cell are separate wells, animals, samples, runs or records.
Cell line: NCI-H322M

SMILES	effect on	technique	tested at	notes	reference	endpoint	result
CCCc1n(Cc2ccc3ccccc3c2)c2ccccc2[n+]1Cc1ccc2ccccc2c1.[Br-]	–	NCI60 five-dose	–	–	–	TGI	2.31 µM
C#C[C@@]1(O)[C@@H](CO)O[C@@H](n2cc(Br)c3c(N)ncnc32)[C@@H]1O	–	SRB	–	NCI-60 screen	–	TGI	4.74 µM and 5.41 µM
Cc1cc(=O)[nH]n1-c1nc(-c2ccc(Cl)cc2)c2c(NC(=O)c3ccccc3)nnc-2[nH]1	–	SRB	10 µM	NCI60 single-dose screen	untreated	cell growth	91.7%
Cc1cc(C)n(C(=S)[S][Au][PH](CCCCCC[PH]([Au][S]C(=S)n2nc(C)cc2C)(c2ccccc2)c2ccccc2)(c2ccccc2)c2ccccc2)n1	cell growth	NCI-60 screen	–	non-small cell lung cancer	–	log10 TGI	-4.65
CCCCCCCCCCCCCCCCCCOc1cccc(CC(=O)OCC[N+]2(C)CCCCC2)c1	–	SRB	10 µM	–	–	growth inhibition	< 0%
Cn1cncc1C1=CN(c2ncnc3[nH]cnc23)CCS1	–	–	–	lung cancer	–	GI50	10.2 µM
CCCCCCCCCCCCCCCCCCOCC(COP(=O)([O-])OCC[N+](C)(C)C)OC (centres unmarked)	–	SRB	10 µM	–	–	growth inhibition	< 0%
C#C[C@@]1(O)[C@@H](CO)O[C@@H](n2cc(F)c3c(N)ncnc32)[C@@H]1O	–	SRB	–	NCI-60 screen	–	TGI	4.48 µM
Cc1cc(-c2ccccc2)n(-c2nc(-c3ccc(Cl)cc3)c3c(NC(=O)c4ccccc4)nnc-3[nH]2)n1	–	SRB	10 µM	NCI60 single-dose screen	untreated	cell growth	80.3%
[Br-].c1ccc2cc(Cn3c[n+](Cc4ccc5ccccc5c4)c4ccccc43)ccc2c1	–	NCI60 five-dose	–	–	–	TGI	2.89 µM
CSc1nc(-c2ccc(Cl)cc2)c2c(NC(=O)c3ccccc3)nnc-2[nH]1	–	SRB	10 µM	NCI60 single-dose screen	untreated	cell growth	98.8%
CCCCCCCCCCCCCCCCCCOc1ccc(CC(=O)OCC[N+](C)(C)C)cc1	–	SRB	10 µM	–	–	growth inhibition	< 0%
Cc1n(Cc2ccc3ccccc3c2)c2ccccc2[n+]1Cc1ccc2ccccc2c1.[Br-]	–	NCI60 five-dose	–	–	–	TGI	3 µM
O=C(Nc1nnc2n3c(Cc4ccccc4)n[nH]c3nc(-c3ccc(Cl)cc3)c1-2)c1ccccc1	–	SRB	10 µM	NCI60 single-dose screen	untreated	cell growth	101%
